# Published values collected from several papers.
# Lines come from different studies, so protocols differ. “And” joins repeats or separate records; there may be more than shown. ± marks the error that the study gave.
# IDE: Insulin-degrading enzyme (IDE, Homo sapiens, UniProt P14735)
Compound,tested on,assay,conditions,scale,quantity,value
CCn1cc(-c2cc(Cn3ccoc3=N)cc3c2CCN([C@@H](C)c2cc(OC)ccn2)C3=O)c(C(F)(F)F)n1,RPMI-7951,"cell growth, inhibitor",120 h,,EC50,> 30000 nM
CC/C(=N\NC(=O)NCc1cccc(O)c1)c1ccc(O)c(C)c1O,SK-OV-3,"Western blot, refers to: LATS","10 µM, 3 h, 2D culture, unit not given",reference: β-actin,protein level,1.02 ± 0.59
Cc1cc(Nc2nn(-c3ccccc3)c(=O)c3ccccc23)n[nH]1,HBL-1,,"0.5 µM, 120 h",,viability,113%
O=C(C[C@@H](C(F)F)n1ccc(F)n1)N1CCC(O)(Cn2cnc3c(cnn3-c3ccc(F)cc3)c2=O)CC1,CHP-212 resistant cells (pooled),PI flow cytometry,"0.1 µM, 24 h",,cells in G1 phase,73% and 74.1% and 70.9%
CC(Nc1nc(N2CCCC2)nc2ccccc12)c1ccccc1 (stereo not shown),HeLa Kyoto,"RelA nuclear import, high content imaging","0.02 µM, 3 h, added: 1 µM PMA, 60 min",,cells with nuclear RelA,88.4% and 86%
CCCNC(=O)N1CC(=O)N2[C@@H](CO)[C@H](c3ccc(-c4cccc(C)c4)cc3)[C@@H]2C1,IDE,"enzyme activity, inhibitor, fluorogenic kinetic",added: Mca-RPPGFSAFK(Dnp)-OH substrate,,EC50,2400 nM
O=C(/C=C/C=C/C=C/C1CCCCC1)NC1=C[C@@](O)(/C=C/C=C/C=C/C(=O)NC2=C(O)CCC2=O)[C@@H]2O[C@@H]2C1=O,kp3,"cell growth, inhibitor, CellTiter-Glo luminescence",78 h,reference: day 0 cell count,GI50,20300 nM
Nc1nc(OCc2cc(Br)cs2)c2[nH]cnc2n1,HBL-1,,"1 µM, 120 h",,viability,98.7%
NC(=O)NOCCCCCCCCCC[P+](c1ccccc1)(c1ccccc1)c1ccccc1.O=C([O-])C(F)(F)F,"mouse CD4 T cells, reporter","IFNγ-YFP expression, flow cytometry",144 h,,concentration at maximal effect,12.5 µM
CCCCCCCCOC(=O)C(=O)CCC(=O)O,HBL-1,,"0.1 µM, 120 h",,viability,117%
CCC/N=C1\S/C(=C\c2ccc(OC[C@H](O)CO)c(Cl)c2)C(=O)N1c1ccccc1C,human primary astrocytes,"single-cell RNA-seq, refers to: SERPINE1 mRNA","concentration not given, 24 h, added: cytokine stimulation",reference: cytokine alone,log2 fold change,0.656
C=C1C(=O)O[C@@H](CCC)[C@@H]1C(=O)O (racemic),HBL-1,,"1 µM, 120 h",,viability,99.5%
CCC(=O)N1CCC(COCC(=O)N2CCN(c3nc(-c4cnc(N)nc4C(F)F)nc(N4CCOC[C@@H]4C)n3)CC2)CC1,A2058,resazurin growth rate inhibition,72 h,,GR50,> 5 µM
COc1cc([C@@H]2c3cc4c(cc3[C@@H](O[C@@H]3O[C@@H]5CO[C@@H](C)O[C@H]5[C@H](O)[C@H]3O)[C@H]3COC(=O)[C@H]23)OCO4)cc(OC)c1O,HBL-1,,"0.1 µM, 120 h",,viability,110%
C#CCNS(=O)(=O)c1ccc(CCN(Cc2cc(Cl)ccc2OCCC)C(=O)c2ccc(F)cc2)cc1,J774A.1,ELISA,"concentration not given, 16 h, added: LPS 1 µg/mL",,TNF-alpha level,no inhibition
CN1CCN(c2ccc(C(=O)Nc3n[nH]c4ccc(Cc5cc(F)cc(F)c5)cc34)c(NC3CCOCC3)c2)CC1,BT-12,"cell viability, MTT","10 µM, 72 h",,inhibition,93.7%
Cn1cc(/C=C/C(=O)c2cccc(F)c2)cc1/C=C/C(=O)NO,HBL-1,,"1 µM, 120 h",,viability,108%
Cn1cc(-c2ccc(-c3cncc(Cl)c3N3CCC4(CCNC4=O)CC3)cc2)cn1,COLO 205,"gene expression, microarray, refers to: BHLHE40 mRNA","concentration not given, 2 h",reference: untreated cells,log2 fold change,2.11
O=C1NC(=O)c2cc(Nc3ccc(F)cc3)c(Nc3ccc(F)cc3)cc21,HeLa expressing Ub(G76V)-GFP,"Ub(G76V)-GFP degradation, cycloheximide chase",12 µM,,inhibition,76%
CC(=O)[C@]1(O)Cc2c(O)c3c(c(O)c2[C@@H](O[C@H]2C[C@H](N)[C@H](O)[C@H](C)O2)C1)C(=O)c1ccccc1C3=O,BT-12,"cell viability, MTT","10 µM, 72 h",,inhibition,93.5%
Cc1cc(=O)oc2cc(NC(=O)CCCCCCC(=O)NO)ccc12,HBL-1,,"0.5 µM, 120 h",,viability,76.8%
O=C1c2ccccc2-c2n[nH]c3cccc1c23,HeLa expressing Ub(G76V)-GFP,"Ub(G76V)-GFP degradation, cycloheximide chase",12 µM,,inhibition,39%
O=S(=O)(c1ccccc1C(F)(F)F)N1C/C=C\CN2[C@H](CO)[C@@H](c3ccc(-c4cccc(Cl)c4Cl)cc3)[C@@H]2C1,IDE,"enzyme activity, inhibitor, fluorescence kinetic",added: Mca-RPPGFSAFK(Dnp)-OH substrate,,EC50,9 nM
C=CC(=O)N1CCCN(C(=O)c2cc(Sc3cnc(NC(=O)C4CC4)s3)c(C)cc2OC)C[C@H]1C,human CD4 T cells,"MSD, refers to: IL-4, IL-5, IL-13","3 days, added: TCR stimulation",,Th2 cytokine production,decreased
COc1cc(/C=C/C(=O)N2CCC=CC2=O)cc(OC)c1OC,MDA-MB-468,"qRT-PCR, refers to: GPX4","30 µM, 6 h",reference: time zero,mRNA level,99.6 ± 12.2%

# A few entries again:
Compound,tested on,assay,conditions,scale,quantity,value
CC(=O)[C@]1(O)Cc2c(O)c3c(c(O)c2[C@@H](O[C@H]2C[C@H](N)[C@H](O)[C@H](C)O2)C1)C(=O)c1ccccc1C3=O,BT-12,"cell viability, MTT","10 µM, 72 h",,inhibition,93.5%
CC(Nc1nc(N2CCCC2)nc2ccccc12)c1ccccc1 (stereo not shown),HeLa Kyoto,"RelA nuclear import, high content imaging","0.02 µM, 3 h, added: 1 µM PMA, 60 min",,cells with nuclear RelA,88.4% and 86%
COc1cc([C@@H]2c3cc4c(cc3[C@@H](O[C@@H]3O[C@@H]5CO[C@@H](C)O[C@H]5[C@H](O)[C@H]3O)[C@H]3COC(=O)[C@H]23)OCO4)cc(OC)c1O,HBL-1,,"0.1 µM, 120 h",,viability,110%
